Assay results pooled from the literature.
Values joined by “and” are separate records of one study, mostly repeats; a detail may differ. Numbers after ± are the reported error.
OPRK1: Kappa-type opioid receptor (OPRK1, Homo sapiens, UniProt P41145)
UniProt P41145, sequence (whole entry, looked up): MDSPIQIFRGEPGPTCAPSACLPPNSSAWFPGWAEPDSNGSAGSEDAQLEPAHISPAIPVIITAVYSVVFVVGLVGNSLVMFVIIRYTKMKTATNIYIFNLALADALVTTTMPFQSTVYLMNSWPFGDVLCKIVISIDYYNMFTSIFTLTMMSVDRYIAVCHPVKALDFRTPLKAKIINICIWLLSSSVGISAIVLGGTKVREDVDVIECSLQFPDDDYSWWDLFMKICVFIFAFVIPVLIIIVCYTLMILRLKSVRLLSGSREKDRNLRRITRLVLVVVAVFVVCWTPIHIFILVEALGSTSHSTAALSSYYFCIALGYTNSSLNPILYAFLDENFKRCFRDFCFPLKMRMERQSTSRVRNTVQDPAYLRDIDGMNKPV
UniProt Q3TRM4, sequence (whole entry, looked up): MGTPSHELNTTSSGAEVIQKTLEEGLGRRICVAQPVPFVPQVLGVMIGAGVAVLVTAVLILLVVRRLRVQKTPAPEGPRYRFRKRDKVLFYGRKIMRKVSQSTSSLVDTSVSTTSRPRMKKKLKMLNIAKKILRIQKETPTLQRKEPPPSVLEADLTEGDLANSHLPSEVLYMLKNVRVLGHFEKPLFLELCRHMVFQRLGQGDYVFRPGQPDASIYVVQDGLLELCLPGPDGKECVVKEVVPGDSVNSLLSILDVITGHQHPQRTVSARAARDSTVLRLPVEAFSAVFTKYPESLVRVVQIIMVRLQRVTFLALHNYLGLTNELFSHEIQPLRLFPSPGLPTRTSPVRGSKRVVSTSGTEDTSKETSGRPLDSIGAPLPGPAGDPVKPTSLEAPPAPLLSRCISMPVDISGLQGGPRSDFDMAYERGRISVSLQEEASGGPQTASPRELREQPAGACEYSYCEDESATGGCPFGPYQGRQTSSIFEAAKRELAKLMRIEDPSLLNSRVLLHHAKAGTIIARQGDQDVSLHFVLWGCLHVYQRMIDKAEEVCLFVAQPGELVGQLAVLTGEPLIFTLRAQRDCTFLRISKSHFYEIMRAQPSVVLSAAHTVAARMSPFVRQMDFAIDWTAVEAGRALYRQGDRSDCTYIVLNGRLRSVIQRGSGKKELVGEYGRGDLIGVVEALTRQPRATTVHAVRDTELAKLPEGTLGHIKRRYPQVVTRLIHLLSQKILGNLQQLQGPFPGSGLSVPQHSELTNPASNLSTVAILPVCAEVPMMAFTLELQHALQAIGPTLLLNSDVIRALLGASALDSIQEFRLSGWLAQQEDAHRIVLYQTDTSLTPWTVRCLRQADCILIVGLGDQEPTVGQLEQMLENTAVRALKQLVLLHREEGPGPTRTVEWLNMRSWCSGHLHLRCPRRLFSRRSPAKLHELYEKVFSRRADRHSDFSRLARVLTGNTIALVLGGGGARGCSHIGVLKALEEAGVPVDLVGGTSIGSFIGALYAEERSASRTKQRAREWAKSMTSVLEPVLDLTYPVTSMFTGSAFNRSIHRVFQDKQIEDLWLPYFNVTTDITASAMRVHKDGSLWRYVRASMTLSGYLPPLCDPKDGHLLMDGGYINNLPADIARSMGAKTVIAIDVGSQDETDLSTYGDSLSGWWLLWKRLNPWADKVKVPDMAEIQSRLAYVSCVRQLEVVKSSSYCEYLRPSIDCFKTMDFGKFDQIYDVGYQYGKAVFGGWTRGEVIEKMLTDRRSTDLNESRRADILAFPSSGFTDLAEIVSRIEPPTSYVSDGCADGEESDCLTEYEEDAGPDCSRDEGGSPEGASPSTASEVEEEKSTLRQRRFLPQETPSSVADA
UniProt Q9Y2J8, sequence (whole entry, looked up): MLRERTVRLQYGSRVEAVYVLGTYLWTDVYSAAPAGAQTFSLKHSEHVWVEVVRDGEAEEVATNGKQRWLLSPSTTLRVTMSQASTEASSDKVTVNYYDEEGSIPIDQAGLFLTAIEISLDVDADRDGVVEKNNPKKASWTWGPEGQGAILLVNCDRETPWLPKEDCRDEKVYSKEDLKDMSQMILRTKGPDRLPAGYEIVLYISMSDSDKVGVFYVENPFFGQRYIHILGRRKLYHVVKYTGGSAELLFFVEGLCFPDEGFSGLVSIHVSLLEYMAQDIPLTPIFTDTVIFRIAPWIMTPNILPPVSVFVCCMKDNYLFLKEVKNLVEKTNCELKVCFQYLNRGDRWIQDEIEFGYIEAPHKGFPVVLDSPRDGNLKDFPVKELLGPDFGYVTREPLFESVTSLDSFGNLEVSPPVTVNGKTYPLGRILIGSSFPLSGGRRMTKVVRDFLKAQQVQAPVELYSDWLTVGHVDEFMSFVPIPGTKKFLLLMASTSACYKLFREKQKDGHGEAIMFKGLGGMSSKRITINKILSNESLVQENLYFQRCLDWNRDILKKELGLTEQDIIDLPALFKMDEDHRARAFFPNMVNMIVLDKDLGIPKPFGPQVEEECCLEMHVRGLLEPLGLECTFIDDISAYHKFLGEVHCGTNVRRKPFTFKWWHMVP
UniProt Q9UH17, sequence (whole entry, looked up): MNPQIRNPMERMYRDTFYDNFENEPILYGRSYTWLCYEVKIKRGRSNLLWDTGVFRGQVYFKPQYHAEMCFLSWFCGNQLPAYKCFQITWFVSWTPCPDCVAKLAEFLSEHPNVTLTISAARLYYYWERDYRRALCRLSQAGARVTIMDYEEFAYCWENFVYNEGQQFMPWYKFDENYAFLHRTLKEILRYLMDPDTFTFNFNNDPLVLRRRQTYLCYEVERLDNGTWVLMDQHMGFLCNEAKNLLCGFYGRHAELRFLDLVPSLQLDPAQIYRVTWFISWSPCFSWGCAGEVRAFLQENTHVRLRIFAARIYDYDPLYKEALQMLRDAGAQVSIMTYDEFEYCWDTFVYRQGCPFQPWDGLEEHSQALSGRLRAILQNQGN
UniProt Q8IVH8, sequence (whole entry, looked up): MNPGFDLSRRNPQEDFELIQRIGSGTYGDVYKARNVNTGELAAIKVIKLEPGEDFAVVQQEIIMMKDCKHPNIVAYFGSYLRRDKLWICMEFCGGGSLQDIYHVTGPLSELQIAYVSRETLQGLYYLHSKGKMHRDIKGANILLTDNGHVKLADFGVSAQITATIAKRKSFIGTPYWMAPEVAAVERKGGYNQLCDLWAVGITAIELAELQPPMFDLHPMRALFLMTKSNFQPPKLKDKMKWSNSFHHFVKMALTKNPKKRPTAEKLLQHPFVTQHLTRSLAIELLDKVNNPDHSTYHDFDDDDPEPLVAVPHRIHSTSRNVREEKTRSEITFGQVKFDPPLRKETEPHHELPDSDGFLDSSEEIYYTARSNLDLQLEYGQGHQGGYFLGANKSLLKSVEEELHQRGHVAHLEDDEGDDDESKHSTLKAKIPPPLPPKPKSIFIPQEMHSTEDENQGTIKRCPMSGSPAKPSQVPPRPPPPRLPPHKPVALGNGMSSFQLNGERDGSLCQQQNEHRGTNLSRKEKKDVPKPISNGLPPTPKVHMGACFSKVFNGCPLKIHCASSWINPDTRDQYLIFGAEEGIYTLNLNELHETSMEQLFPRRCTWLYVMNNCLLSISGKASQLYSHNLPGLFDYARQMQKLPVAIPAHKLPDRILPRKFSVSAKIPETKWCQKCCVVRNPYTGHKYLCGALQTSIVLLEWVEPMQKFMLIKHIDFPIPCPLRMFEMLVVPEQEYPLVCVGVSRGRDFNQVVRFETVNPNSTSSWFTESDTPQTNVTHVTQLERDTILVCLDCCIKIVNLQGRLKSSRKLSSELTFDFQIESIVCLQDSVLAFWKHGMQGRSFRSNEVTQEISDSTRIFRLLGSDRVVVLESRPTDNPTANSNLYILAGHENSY
UniProt Q96LB1, sequence (whole entry, looked up): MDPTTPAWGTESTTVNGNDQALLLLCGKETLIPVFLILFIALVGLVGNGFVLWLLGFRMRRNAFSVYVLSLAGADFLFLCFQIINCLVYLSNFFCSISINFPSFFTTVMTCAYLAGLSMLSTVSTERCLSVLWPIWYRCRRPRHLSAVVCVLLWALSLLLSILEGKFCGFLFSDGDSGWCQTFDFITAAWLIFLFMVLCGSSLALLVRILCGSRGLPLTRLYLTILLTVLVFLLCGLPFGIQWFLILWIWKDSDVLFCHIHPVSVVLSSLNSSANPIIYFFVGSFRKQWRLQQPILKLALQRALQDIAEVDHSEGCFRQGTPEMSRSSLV
UniProt Q05655, sequence (whole entry, looked up): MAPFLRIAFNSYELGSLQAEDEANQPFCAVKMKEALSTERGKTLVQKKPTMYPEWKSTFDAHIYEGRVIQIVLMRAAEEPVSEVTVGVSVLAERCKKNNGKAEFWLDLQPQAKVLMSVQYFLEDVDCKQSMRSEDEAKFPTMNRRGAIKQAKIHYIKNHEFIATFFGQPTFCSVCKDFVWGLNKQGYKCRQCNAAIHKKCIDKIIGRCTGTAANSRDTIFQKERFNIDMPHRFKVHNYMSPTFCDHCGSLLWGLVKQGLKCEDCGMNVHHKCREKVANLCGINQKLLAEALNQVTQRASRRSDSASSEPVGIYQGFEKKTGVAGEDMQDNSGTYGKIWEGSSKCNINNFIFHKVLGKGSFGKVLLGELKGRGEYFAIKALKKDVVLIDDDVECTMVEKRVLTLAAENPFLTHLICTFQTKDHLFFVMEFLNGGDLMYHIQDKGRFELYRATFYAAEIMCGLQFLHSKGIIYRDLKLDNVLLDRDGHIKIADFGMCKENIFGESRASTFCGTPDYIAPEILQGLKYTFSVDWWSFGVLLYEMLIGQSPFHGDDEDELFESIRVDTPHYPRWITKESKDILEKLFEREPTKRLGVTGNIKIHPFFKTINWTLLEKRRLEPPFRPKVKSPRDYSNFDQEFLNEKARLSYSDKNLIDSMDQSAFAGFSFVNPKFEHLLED
UniProt Q6DWJ6, sequence (whole entry, looked up): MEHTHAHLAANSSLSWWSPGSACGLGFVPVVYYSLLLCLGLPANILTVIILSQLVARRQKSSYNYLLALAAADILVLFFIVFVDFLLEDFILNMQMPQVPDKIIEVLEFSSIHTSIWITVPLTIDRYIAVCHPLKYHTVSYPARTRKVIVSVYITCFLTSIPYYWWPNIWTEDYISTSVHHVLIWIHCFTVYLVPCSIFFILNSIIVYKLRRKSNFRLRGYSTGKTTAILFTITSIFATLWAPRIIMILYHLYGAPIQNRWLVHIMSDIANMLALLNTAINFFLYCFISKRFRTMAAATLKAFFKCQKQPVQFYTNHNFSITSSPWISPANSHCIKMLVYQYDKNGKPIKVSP

C=CC(=O)NC[C@H](NC(=O)[C@H](CC1CCCCC1)NC(=O)[C@H](CCC(N)=O)NC(C)=O)C(=O)N[C@@H](CC(C)C)C(=O)N[C@@H](Cc1ccccc1)C(=O)O  ΔG (Beta sliding clamp (Escherichia coli, UniProt P0A988); binding, isothermal titration calorimetry; 22 °C): -9.4 kcal/mol
CC(C)CC(O)(CC(C)C)c1cn(C(=O)N2CCCC2)nn1  ratio of ratios (Acylamino-acid-releasing enzyme (Apeh, Mus musculus, UniProt Q8R146); enzyme activity, inhibitor, item: Apeh; mouse, brain; i.p., 0.8 mg/kg, 4 h, protein level; reference: vehicle): 0
CCCCC/C=C\C/C=C\C/C=C\C/C=C\CCCC(=O)NCCc1ccc(O)c(O)c1  Hill coefficient (Transient receptor potential cation channel subfamily V member 1 (Trpv1, Mus musculus, UniProt Q704Y3, E571A); patch clamp; E571A mutant channel): 2.19 ± 0.09
C#CCCCCOc1ccc2c(c1)CCCN2C(=O)CCl  reactivity ratio (V-type proton ATPase catalytic subunit A (ATP6V1A, Homo sapiens, UniProt P38606); mass spectrometry profiling; Ramos cell lysate; 100 µM over 10 µM, UniProt P38606; reference: high over low concentration): 0.632
C=CC(=O)Nc1cc(-c2ccc(C(=O)N3CCCC(O)(CC)C3)cc2)ccc1F (stereo not drawn)  unmodified protein (DNA dC->dU-editing enzyme APOBEC-3B, C-terminal domain (Homo sapiens, UniProt Q9UH17); covalent adduct, intact protein MS; 3 h, 1-fold, 25 µM): 100% and 95%
CCOC(=O)[C@@H]1Cc2c(cc([N+](=O)[O-])cc2[N+](=O)[O-])[C@H](O)[C@]12C(=O)Nc1ccc(Br)cc12  remaining binding (Cyclin-dependent kinase 16 (CDK16, Homo sapiens, UniProt Q00536); binding, competition with immobilised ligand; 0.1 µM): 89%
F[B-](F)(F)c1cccc(/N=N/c2ccccc2I)c1.[K+]  switching factor (Chymotrypsinogen A (Bos taurus, UniProt P00766); enzyme activity, inhibitor; together with: Suc-AAPF-AMC; reference: Ki cis over Ki trans): 2.6 ± 0.4
N[C@H](C(=O)N1CCCC1)C1CCN(c2nccc3c(-c4ncc(Cl)cc4Cl)cccc23)CC1  kcat (Protein-arginine deiminase type-2 (PADI2, Homo sapiens, UniProt Q9Y2J8); enzyme activity; 0.006291 µM, together with: Ca2+ 0.25 mM): 1.48 s⁻¹ and 1.31 s⁻¹
Cc1ccc(OCCN(C)C)cc1C(=O)N[C@H](C)c1cc(-c2cnn(CC(=O)N(C)C)c2)nc2ccccc12  viability (African green monkey cells; 62.5 µM): 108%
C[C@@H](Cc1ccsc1)NC(=O)NC[C@H](Cc1ccc(O)cc1)N(C)C  Emax (Mu-type opioid receptor, with GoB (OPRM1, Homo sapiens, UniProt P35372); receptor activation, agonist): 89 ± 5%
Cc1ccc(N2CCN(C)C3(CC3)C2)cc1C(=O)N[C@H](C)c1cc(-c2cnn(C)c2)nc2ccccc12  viability (Vero E6; 15.62 µM): 99% and 102% and 104%
O=C(c1cccc(-n2cccc2)c1)N1CCCN(S(=O)(=O)c2ccc(F)cc2)CC1  Hill slope (Genome polyprotein, 3C protease (rhinovirus B14, UniProt P03303); protease activity, SAMDI-MS): 1.46
O=C(Cc1ccc(Cl)c(Cl)c1)N1CCN(C(=O)C2(O)CCCC2)[C@@H]2COC[C@H](N3CCCC3)[C@H]21 (single isomer, unassigned)  Emax (OPRK1; β-arrestin-2 recruitment, agonist; U2OS; 1.5 h; reference: U-69593 maximal response): 31%
O=C(O)C(/C=C/c1ccc(Cl)cc1)=N\Nc1nc(-c2ccc(Br)cc2)cs1  selectivity index (Acetylcholinesterase (ache, Electrophorus electricus, UniProt O42275); Ellman; reference: IC50 BChE over IC50 AChE): 52
CS(C)(=O)=Nc1ccc(-c2ccc(-c3nc4cc(O[C@@H]5CO[C@H]6[C@@H]5OC[C@H]6O)[nH]c4cc3F)cc2)cc1  inhibition (Protein kinase C delta type (PRKCD, Homo sapiens, UniProt Q05655); enzyme activity, inhibitor; 10 µM): 3%
CC(C)C[C@@H]1NC(=O)[C@H](CC(=O)O)NC(=O)CNC(=O)[C@H](CCCNC(=N)N)NC(=O)[C@H](Cc2ccccc2)NC(=O)[C@H](CCCCNC(=O)CCc2cn(CCCNC(=O)CCC(C(=O)O)N3CCN(CC(=O)O)CCN(CC(=O)O)CCN(CC(=O)O)CC3)nn2)N(C)C(=O)[C@H]2CCCN2C(=O)[C@H](Cc2ccccc2)NC(=O)[C@H](C)NC1=O (stereo partly drawn)  tissue-to-tissue ratio (female CB17 SCID mice, tumour and adrenals; intravenous, dose not given, 90 min, 177Lu-labelled; reference: tumour over adrenals): 9.5 ± 8
CCCCCCCCCCCCCCCCCC(=O)NC[C@H]1CC[C@H](C(=O)N[C@@H](CCC(=O)NCCCOCCOCCOCCCNC(=O)COCC(=O)N[C@@H](Cc2ccc(O)cc2)C(=O)NC(C)(Cc2ccccc2)C(=O)N[C@@H](CC(C)C)C(=O)N[C@@H](CCCC)C(=O)N[C@@H](CCCNC(=N)N)C(=O)N2CCC[C@H]2C(=O)N[C@@H](CCCNC(=N)NC)C(=O)N[C@@H](CC(N)=O)C(N)=O)C(=O)O)CC1 (stereo partly drawn)  activation (Mas-related G-protein coupled receptor member X2 (MRGPRX2, Homo sapiens, UniProt Q96LB1); GPCR signalling, agonist; 1 µM): 129%
CCCCCCCCCCCCC/C=C/C=O  isoTOP-ABPP competition ratio (60 kDa heat shock protein, mitochondrial (Homo sapiens, UniProt P10809); competitive isoTOP-ABPP, item: HSPD1 cysteine peptide; proteome, soluble, MDA-MB-231; 100 µM, together with: iodoacetamide probe; reference: DMSO over compound-treated, higher = stronger cysteine blockade): 1.1
COc1ccccc1-c1n[nH]c2nc(N[C@H]3CC[C@H](NS(=O)(=O)CC(C)C)CC3)ncc12  remaining binding (cdc2-related kinase 12 (Leishmania donovani, UniProt A0A3S7WQK2); kinobead competition pull-down; Leishmania donovani, cell extract; 2 µM, unit not given; reference: vehicle): 0.1
O=C(CN1CN(c2ccccc2)C2(CCN(C(=O)c3cnc4[nH]ncc4c3)CC2)C1=O)NCC(F)(F)F  inhibition (Mitogen-activated protein kinase kinase kinase kinase 3 (MAP4K3, Homo sapiens, UniProt Q8IVH8); inhibitor; concentration not given): < 50%
COCC1CCCCN1C(=O)n1cc(C(O)(c2ccccc2)c2ccccc2)nn1 (stereo not drawn)  SILAC activity ratio (Patatin-like phospholipase domain-containing protein 6 (Mus musculus, UniProt Q3TRM4); probe labelling, inhibitor, competitive ABPP-SILAC, item: Pnpla6; mouse T cells; concentration not given, 4 h, single peptide; reference: treated over DMSO cells, lower = stronger inhibition): 1.29 and 1.59 and 1.46 and 1.17 and 1.58 and 1.45
O=C(Cc1ccc(Cl)c(Cl)c1)N1CCN(Cc2ccccc2)[C@@H]2CCC[C@H](N3CCCC3)[C@H]21 (relative stereo)  Emax (OPRK1; agonist; 0.3333 h): 87%
O=C1NC(=O)c2c1c1cc(F)c[n+]3c1c1c2c2cc(O)ccc2[n]1[Ru-4]312([N]=C=S)[S+]3CC[S+]1CC[S+]2CC3 (stereo not drawn)  remaining activity (Ephrin type-A receptor 5 (EPHA5, Homo sapiens, UniProt P54756); enzyme activity; 100 nM, human enzyme, together with: 10 µM ATP; reference: untreated): 126%
O=C(NC1CCN(c2ncnc3[nH]cnc23)CC1)c1cccc(NS(=O)(=O)c2ccc(C(F)(F)F)cc2)c1  inhibition (Replicase polyprotein 1ab, nsp14 (Human coronavirus OC43, UniProt P0C6X6); enzyme activity; 200 µM): 96.6%
CC(C)[C@H]1NC(=O)C[C@H]2/C=C/CCSSC[C@@H](NC1=O)C(=O)N[C@H](Cc1cccc3ccccc13)C(=O)NCC(=O)O2  inhibition (Serine/threonine-protein kinase MARK1 (MARK1, Homo sapiens, UniProt Q9P0L2); enzyme activity, inhibitor; 10 µM): -2%
O=C(N[C@@H]1c2ccccc2C[C@H]1N1CCCC1)c1ccc(-c2ccnc3[nH]ccc23)nc1  remaining binding (Rhodopsin kinase GRK1 (GRK1, Homo sapiens, UniProt Q15835); binding, competition with immobilised ligand; 3 µM): 25%
CCN(N=Cc1cnc2ccc(Br)cn12)S(=O)(=O)c1cc([N+](=O)[O-])ccc1C  IC50 fold change (Phosphatidylinositol 4,5-bisphosphate 3-kinase catalytic subunit alpha isoform (PIK3CA, Homo sapiens, UniProt P42336); Kinase-Glo luminescence; reference: wild type): 1
CN1CCC23c4c5ccc(O)c4CC2C(O)C=CC3C1C5 (racemic)  Emax (OPRK1; receptor activation, agonist, cell-based): 93 ± 7%
CCNC(=S)NN=Cc1c2ccccc2cc2ccccc12.Cc1ccc(C(C)C)cc1.[Cl-].[Cl-].[Ru+2]  ΔG° (Albumin (ALB, Homo sapiens, UniProt P02768); binding, fluorescence titration; human serum albumin; 296 K): -6.6 kcal/mol
CN(C)[C@H]1C[C@@]23CC[C@@]4(O2)C(=CC[C@]2(C)[C@@H](c5ccc6ccncc6c5)CC[C@H]24)C=C3[C@@H](O)[C@@H]1O  inhibition (NUAK family SNF1-like kinase 1 (NUAK1, Homo sapiens, UniProt O60285); ATP probe labelling, inhibitor, KiNativ profiling; 1 µM): -4.7%
Fc1ccc2[nH]c(NCCCN[C@@H]3CCOc4c(Cl)cc(Cl)cc43)nc2n1  selectivity ratio (Methionine--tRNA ligase, mitochondrial (MARS2, Homo sapiens, UniProt Q96GW9); enzyme activity; reference: human IC50 over T. brucei IC50): > 2
CC[C@H](C)[C@H](NC(=O)[C@H](CCCNC(=N)N)NC(=O)[C@H](CCCNC(=N)N)NC(=O)[C@H](CC(C)C)NC(=O)[C@H](Cc1ccccc1)NC(=O)CNC(=O)CNC(=O)[C@@H](N)Cc1ccc(O)cc1)C(=O)N[C@@H](CCCNC(=N)N)C(=O)N1CCC[C@H]1C(=O)N[C@@H](CCCCN)C(=O)N[C@@H](CC(C)C)C(=O)N[C@@H](CCCCN)C(=O)O  Emax (Probable G-protein coupled receptor 139 (GPR139, Homo sapiens, UniProt Q6DWJ6); GαsS activation, agonist, BRET; HEK293T/17; 40 µM): 5.85%
O=C1NC2(CC2)COc2ncc(F)cc2[C@H]2COCCN2c2ccn3ncc1c3n2  organ-to-body weight ratio (Sprague-Dawley rat, female, thymus; oral, 2.5 mg/kg/day, 4 weeks, end of treatment): 0.18 ± 0.027%

Some of these lines once more:
CC(C)CC(O)(CC(C)C)c1cn(C(=O)N2CCCC2)nn1  ratio of ratios (Acylamino-acid-releasing enzyme (Apeh, Mus musculus, UniProt Q8R146); enzyme activity, inhibitor, item: Apeh; mouse, brain; i.p., 0.8 mg/kg, 4 h, protein level; reference: vehicle): 0
CC(C)[C@H]1NC(=O)C[C@H]2/C=C/CCSSC[C@@H](NC1=O)C(=O)N[C@H](Cc1cccc3ccccc13)C(=O)NCC(=O)O2  inhibition (Serine/threonine-protein kinase MARK1 (MARK1, Homo sapiens, UniProt Q9P0L2); enzyme activity, inhibitor; 10 µM): -2%
